Results pooled from the literature.
Parts stem from different laboratories: compare values within a part only. Several values in a cell are separate wells, animals, samples, runs or records.
UniProt O08590, sequence (whole entry, looked up): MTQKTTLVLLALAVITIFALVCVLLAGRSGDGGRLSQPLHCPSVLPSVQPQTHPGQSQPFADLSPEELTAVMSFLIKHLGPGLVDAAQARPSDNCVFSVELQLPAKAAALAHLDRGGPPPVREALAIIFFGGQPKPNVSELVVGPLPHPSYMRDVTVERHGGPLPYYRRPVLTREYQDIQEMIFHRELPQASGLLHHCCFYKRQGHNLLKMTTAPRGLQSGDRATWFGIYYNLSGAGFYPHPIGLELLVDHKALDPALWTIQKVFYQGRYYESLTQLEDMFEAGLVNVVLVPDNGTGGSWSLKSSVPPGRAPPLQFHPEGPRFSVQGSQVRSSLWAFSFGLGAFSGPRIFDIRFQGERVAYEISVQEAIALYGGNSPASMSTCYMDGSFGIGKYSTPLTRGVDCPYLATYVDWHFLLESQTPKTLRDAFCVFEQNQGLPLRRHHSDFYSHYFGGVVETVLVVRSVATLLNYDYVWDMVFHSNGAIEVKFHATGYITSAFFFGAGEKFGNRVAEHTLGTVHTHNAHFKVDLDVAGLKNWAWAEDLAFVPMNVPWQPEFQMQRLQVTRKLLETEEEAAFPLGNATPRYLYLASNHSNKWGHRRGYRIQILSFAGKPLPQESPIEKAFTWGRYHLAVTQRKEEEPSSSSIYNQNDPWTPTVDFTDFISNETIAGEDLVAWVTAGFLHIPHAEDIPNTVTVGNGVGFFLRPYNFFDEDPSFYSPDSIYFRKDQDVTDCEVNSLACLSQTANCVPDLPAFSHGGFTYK
UniProt Q9UM73, sequence (whole entry, unmodified, looked up): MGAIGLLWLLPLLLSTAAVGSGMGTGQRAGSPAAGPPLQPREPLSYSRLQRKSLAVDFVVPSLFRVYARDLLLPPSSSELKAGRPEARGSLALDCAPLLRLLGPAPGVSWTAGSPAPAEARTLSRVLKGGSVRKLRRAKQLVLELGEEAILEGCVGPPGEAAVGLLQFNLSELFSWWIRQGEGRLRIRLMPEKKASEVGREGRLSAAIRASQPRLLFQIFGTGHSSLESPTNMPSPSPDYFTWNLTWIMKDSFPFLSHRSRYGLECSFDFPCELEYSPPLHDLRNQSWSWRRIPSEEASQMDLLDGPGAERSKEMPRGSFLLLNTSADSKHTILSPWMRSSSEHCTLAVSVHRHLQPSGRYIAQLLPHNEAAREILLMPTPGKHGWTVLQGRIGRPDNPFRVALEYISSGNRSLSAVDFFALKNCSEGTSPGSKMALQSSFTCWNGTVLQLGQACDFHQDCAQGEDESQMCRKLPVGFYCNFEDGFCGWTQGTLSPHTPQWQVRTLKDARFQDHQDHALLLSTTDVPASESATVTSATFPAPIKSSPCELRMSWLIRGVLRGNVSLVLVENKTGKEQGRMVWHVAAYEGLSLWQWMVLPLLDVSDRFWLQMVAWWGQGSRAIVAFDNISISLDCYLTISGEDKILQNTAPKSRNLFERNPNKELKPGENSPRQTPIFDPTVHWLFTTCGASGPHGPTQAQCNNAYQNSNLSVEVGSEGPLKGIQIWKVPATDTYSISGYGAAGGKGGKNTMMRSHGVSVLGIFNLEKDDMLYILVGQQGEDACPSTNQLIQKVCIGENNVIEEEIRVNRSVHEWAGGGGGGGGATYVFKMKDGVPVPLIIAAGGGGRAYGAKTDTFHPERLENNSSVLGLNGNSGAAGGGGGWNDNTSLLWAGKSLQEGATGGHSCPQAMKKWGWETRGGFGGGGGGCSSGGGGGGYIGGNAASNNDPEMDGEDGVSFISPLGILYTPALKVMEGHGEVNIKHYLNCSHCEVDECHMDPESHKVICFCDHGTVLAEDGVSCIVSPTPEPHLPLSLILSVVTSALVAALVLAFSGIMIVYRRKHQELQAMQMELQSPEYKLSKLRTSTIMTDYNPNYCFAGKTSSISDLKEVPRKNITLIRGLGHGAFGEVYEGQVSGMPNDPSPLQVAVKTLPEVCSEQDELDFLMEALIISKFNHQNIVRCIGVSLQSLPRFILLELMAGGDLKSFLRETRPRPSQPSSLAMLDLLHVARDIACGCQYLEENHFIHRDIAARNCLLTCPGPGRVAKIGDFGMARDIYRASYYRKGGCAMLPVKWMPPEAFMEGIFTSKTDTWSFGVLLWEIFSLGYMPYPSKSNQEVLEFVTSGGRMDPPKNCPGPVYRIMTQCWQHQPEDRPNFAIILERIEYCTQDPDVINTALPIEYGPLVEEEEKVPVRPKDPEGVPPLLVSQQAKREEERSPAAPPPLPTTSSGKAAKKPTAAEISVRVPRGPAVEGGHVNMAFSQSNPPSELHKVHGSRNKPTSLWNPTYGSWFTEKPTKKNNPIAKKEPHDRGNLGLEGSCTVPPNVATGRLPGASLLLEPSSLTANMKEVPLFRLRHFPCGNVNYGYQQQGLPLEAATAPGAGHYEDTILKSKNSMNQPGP
UniProt P46734, sequence (whole entry, looked up): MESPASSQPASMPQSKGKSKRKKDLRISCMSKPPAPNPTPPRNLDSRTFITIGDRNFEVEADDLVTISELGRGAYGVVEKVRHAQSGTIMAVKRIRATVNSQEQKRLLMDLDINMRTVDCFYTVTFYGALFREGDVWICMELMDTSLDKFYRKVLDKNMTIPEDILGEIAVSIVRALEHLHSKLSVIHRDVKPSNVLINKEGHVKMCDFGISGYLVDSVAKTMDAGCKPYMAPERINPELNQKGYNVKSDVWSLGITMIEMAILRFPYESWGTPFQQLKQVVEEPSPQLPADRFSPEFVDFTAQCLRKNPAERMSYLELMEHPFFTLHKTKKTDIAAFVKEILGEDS
UniProt P53355, sequence (whole entry, looked up): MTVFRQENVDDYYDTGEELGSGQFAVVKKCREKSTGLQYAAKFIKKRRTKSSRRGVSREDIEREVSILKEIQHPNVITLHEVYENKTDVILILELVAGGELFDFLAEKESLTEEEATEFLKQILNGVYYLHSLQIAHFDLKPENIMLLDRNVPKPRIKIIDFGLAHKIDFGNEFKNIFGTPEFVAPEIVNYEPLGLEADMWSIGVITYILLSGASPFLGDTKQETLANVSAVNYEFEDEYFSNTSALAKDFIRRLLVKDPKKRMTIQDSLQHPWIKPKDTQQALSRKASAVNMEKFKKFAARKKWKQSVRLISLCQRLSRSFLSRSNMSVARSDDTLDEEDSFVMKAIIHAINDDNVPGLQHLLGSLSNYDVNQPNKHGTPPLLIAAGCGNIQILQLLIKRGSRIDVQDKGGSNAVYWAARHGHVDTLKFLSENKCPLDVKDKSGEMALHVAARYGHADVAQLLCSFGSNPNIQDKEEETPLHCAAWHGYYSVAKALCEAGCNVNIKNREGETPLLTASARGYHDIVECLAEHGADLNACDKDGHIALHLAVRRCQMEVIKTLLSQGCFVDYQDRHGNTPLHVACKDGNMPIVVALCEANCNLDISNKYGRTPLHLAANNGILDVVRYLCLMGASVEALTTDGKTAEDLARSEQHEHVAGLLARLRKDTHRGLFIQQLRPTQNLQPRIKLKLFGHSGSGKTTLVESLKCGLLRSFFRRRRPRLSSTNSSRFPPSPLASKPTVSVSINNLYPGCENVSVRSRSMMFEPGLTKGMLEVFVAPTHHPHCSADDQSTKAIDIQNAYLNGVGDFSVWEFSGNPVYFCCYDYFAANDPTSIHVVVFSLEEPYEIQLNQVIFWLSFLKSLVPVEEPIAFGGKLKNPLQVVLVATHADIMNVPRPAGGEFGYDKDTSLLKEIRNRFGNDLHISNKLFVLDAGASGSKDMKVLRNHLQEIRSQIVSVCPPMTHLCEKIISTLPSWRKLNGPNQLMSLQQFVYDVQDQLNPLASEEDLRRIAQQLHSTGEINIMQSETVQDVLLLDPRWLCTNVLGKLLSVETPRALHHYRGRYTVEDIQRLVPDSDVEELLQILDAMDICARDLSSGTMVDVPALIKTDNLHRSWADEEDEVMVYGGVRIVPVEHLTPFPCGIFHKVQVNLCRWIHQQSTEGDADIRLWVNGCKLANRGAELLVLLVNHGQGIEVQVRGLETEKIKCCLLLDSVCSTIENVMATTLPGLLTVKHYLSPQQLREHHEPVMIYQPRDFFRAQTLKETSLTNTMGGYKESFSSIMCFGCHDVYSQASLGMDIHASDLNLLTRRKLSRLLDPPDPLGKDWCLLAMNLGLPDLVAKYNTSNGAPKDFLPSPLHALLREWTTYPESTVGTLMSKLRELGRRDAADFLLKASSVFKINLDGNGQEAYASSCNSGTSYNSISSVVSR

Study 1
SMILES: O=C(Nc1ccccc1)Nc1cccc(Oc2ccc3nccn3n2)c1
Effect on: binding
Tested at: 1 µM
Quantity: remaining binding
ALK (Homo sapiens, UniProt Q9UM73, C1156Y): 88%
CAMK2B (Homo sapiens, UniProt Q13554): 100%
DAPK1 (Homo sapiens, UniProt P53355): 90%
BRAF (Homo sapiens, UniProt P15056, V600E): 49%
MAP3K1 (Homo sapiens, UniProt Q13233): 100%
Receptor-type tyrosine-protein kinase FLT3, autoinhibited (FLT3, Homo sapiens, UniProt P36888); competition with immobilised ligand: 100%
SRPK2 (Homo sapiens, UniProt P78362): 97%
MAP2K3 (Homo sapiens, UniProt P46734): 100%

Study 2
Compound: Cc1nc(C)c(C=[N+]([O-])C(C)(C)C)nc1C
Method: Western blot
Host: MPTP mouse model
Notes: unit not given
Reference: β-actin
Quantity: HO-1 protein level
substantia nigra cytosol; 90 mg/kg: 89.5 and 115 and 98.5 and 108
substantia nigra nuclei; 10 mg/kg: 75.2 and 106 and 82.9
substantia nigra nuclei; 90 mg/kg: 75.5 and 75.3 and 93.5
substantia nigra cytosol; 30 mg/kg: 71.5 and 96.9 and 134 and 71.3

Study 3
Structure (SMILES): CS(=O)(=O)c1ccc(OC/C(=C/F)CN)cc1.Cl
Quantity: inhibition
MAOB: Amine oxidase [flavin-containing] B (MAOB, Homo sapiens, UniProt P27338)
UniProt P27338, sequence (whole entry, looked up): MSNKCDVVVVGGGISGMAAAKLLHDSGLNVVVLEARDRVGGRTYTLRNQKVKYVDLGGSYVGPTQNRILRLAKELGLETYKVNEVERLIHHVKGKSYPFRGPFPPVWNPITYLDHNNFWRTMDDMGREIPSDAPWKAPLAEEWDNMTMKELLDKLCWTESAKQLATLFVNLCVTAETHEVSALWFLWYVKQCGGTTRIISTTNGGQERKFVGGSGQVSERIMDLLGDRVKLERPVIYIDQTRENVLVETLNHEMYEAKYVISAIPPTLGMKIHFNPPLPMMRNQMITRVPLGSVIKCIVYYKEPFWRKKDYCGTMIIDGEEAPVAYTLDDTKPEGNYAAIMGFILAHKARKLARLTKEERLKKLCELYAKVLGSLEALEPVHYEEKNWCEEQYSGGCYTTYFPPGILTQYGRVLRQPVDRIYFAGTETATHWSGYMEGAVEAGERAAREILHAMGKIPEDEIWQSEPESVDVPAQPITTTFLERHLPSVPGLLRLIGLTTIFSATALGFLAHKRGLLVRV
Amine oxidase [copper-containing] 3 (Mus musculus, UniProt O70423); mouse adipose tissue; 0.0041 µM: 62.6%
Amine oxidase [copper-containing] 3 (Rattus norvegicus, UniProt O08590); rat adipose tissue; 3 µM: 100%
MAOB; enzyme activity, inhibitor; 13.7 nM: -0.779% and 5.84% and 8.47%
Amine oxidase [copper-containing] 3 (Rattus norvegicus, UniProt O08590); rat adipose tissue; 0.3333 µM: 98.2%
Amine oxidase [copper-containing] 3 (Rattus norvegicus, UniProt O08590); rat adipose tissue; 0.0014 µM: 29.5%
MAOB; enzyme activity, inhibitor; 15.2 nM: -2.38% and -6.16% and -1.73%
MAOB; enzyme activity, inhibitor; 3.333 µM: 6.89% and -0.714%
Amine oxidase [copper-containing] 3 (Rattus norvegicus, UniProt O08590); rat adipose tissue; 0.0041 µM: 71.7%

Other studies, line by line
Cn1cc(-c2cccc(CN3CCC4(CC3)COc3c4ccc4c3CN([C@H]3CCC(=O)NC3=O)C4=O)c2)cn1  clearance (rat, plasma; intravenous, 1.02 mg/kg): 20.4 mL/min/kg
